Assay results pooled from the literature.
Each line is one published result; not all experiments were run side by side. Numbers after ± are the reported error.
Target: Mu-type opioid receptor (OPRM1, Homo sapiens, UniProt P35372)
UniProt P35372, sequence (whole entry, looked up): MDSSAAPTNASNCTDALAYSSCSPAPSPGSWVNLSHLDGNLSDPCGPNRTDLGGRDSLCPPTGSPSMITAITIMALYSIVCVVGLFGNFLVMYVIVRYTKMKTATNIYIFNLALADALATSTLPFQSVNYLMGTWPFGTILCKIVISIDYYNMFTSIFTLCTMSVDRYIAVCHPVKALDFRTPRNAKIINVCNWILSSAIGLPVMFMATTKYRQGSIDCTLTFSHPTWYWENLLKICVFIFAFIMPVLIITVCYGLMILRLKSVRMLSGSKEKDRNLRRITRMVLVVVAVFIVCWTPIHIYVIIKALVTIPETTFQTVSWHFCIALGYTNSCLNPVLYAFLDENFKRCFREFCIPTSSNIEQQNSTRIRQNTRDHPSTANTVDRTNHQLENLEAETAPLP

| SMILES | assay | test system | conditions | measurement | value |
| --- | --- | --- | --- | --- | --- |
| COc1cc2c(cc1O)C(CCc1ccc(Cl)cc1)N(C)CC2 (centres unmarked) | cell-free assay, radioligand | – | – | Ki | 66 nM |
| CN(C)[C@H](CNC(=O)/C=C/c1cccc2ccccc12)Cc1ccc(O)cc1 | receptor activation, agonist | – | – | EC50 | 18 ± 2 nM |
| COc1cc2c(cc1-n1ccnc1)C[C@H]1[C@H]3CCCC[C@@]23CCN1C | ligand displacement, radioligand | – | – | IC50 | 2300 nM |
| CCCCCCCCCCCCCCCCCC(=O)NC[C@H]1CC[C@H](C(=O)N[C@@H](CCC(=O)NCCCOCCOCCOCCCNC(=O)COCC(=O)N[C@@H](Cc2ccc(O)cc2)C(=O)NC(C)(Cc2ccccc2)C(=O)N[C@@H](CC(C)C)C(=O)N[C@@H](CCCC)C(=O)N[C@@H](CCCNC(=N)N)C(=O)N2CCC[C@H]2C(=O)N[C@@H](CCCNC(=N)NC)C(=O)N[C@@H](CC(N)=O)C(N)=O)C(=O)O)CC1 (some centres unmarked) | β-arrestin recruitment, antagonist | – | added: 1 µM Met-enkephalin | IC50 | 1180 nM |
| CN1CC[C@]23c4c5ccc(O)c4C[C@H]2[C@@H](O)C=C[C@H]3[C@H]1C5 | – | cell-based | – | IC50 | 7.4 nM |
| O=C(O)CCn1c(=O)oc2cc(Cl)c(Cl)cc21 | antagonist | – | median value | IC50 | > 100000 nM |
| COc1cc2c(cc1NC(=O)c1cncn1C)C[C@H]1[C@H]3CCCC[C@@]23CCN1C | ligand displacement, radioligand | – | – | IC50 | > 30000 nM |
| O=C(Cc1ccc(Cl)c(Cl)c1)N1CCNC2COCC(N3CCCC3)C21 (centres unmarked) | binding, radioligand displacement | CHO cell membranes | added: [3H]DAMGO | Ki | > 10000 nM |

Excerpt of the above:
| SMILES | assay | test system | conditions | measurement | value |
| --- | --- | --- | --- | --- | --- |
| O=C(O)CCn1c(=O)oc2cc(Cl)c(Cl)cc21 | antagonist | – | median value | IC50 | > 100000 nM |
